Measured values from different studies.
Protocols differ between the studies behind these lines. ± marks the error that the study gave.

| SMILES | test | system | conditions | scale | quantity | result |
| --- | --- | --- | --- | --- | --- | --- |
| Cc1cccc(-c2cccc(C)n2)n1.Cc1cccc(-c2cccc(C)n2)n1.[Cl-].[Cl-].[Ru+2].c1ccc(-c2ccnc3c2ccc2c(-c4ccccc4)ccnc23)cc1 |  | phosphate buffer with NaCl | pH 6.0, 37 °C, photoactivated, dialysis |  | release from nanoassemblies | 50.3% |
| CC(=O)N[C@H](CCNC(=O)c1cc(NC(=O)c2cc(NC(=O)c3cc(NC(=O)c4nccn4C)cn3C)cn2C)cn1C)C(=O)Nc1cn(C)c(C(=O)Nc2cc(C(=O)Nc3cc(C(=O)Nc4cc(C(=O)NCCCN(C)CCCN[14C](=O)c5cccc([14C](=O)O)c5)n(C)c4)n(C)c3)n(C)c2)n1 |  | male NSG mouse, tumour-free | intraperitoneal, 20 nmol per animal, 24 h |  | liver concentration | 0.57 mg/kg |
| COc1cc(NC(C)=O)c2c(c1O)-c1c(OC)c(OC)cc3c1C(C2)N(C)CC3 (stereo not shown) |  | rat kidney homogenate | 5 µg/mL, 40 d, -20 °C, long-term storage |  | remaining compound | 86.7 ± 1% |
| NC[C@@H](C(=O)Nc1ccc(-c2cn[nH]c2)cc1)c1ccccc1 | OECD 405, measured: Chemosis | New Zealand White rabbit | topical, 0.1 %, 72 h, day 4 | direction not given | ocular irritation score | 0 |
| CC1=N[C@H](C)Cc2c(-c3ccc(C)cc3)ccc(O)c21 | metabolic stability | male CD-1 mouse, liver microsomes | 1 µM, 30 min |  | compound remaining | < 7% |
| C=C(c1cc(F)c(C(=O)O)c(F)c1)c1cc2c(cc1C)C(C)(C)CCC2(C)C |  | Sprague-Dawley rat, male, plasma | oral, 100 mg/kg, 6 h, sesame oil vehicle |  | HDL level | 52 ± 10.8 mg/dL |
| COc1ccc(/C=C/c2ccc(-c3ccc(C)cn3)nc2)cc1 |  | DMSO | with: quinine bisulfate reference |  | fluorescence quantum yield | 0.48 |
| COC(=O)c1ccc2c(c1)NC(=O)/C2=C(\Nc1ccc2c(c1)CCN2C(=O)CN1CCOCC1)c1ccccc1 |  | beagle dog, plasma | intravenous, 2 mg/kg |  | AUC(0-t) | 1010 ng·h/mL |
| CCCC[C@@H]1NC(=O)[C@@H](NC(=O)[C@H](CCC(=O)O)NC(=O)CNC(=O)CN2CCN(CC(=O)O)CCN(CC(=O)O)CCN(CC(=O)O)CC2)CCCCNC(=O)C[C@@H](C(N)=O)NC(=O)[C@H](C(C)C)NC(=O)[C@@H]2CCCN2C(=O)[C@H](CCCNC(=N)N)NC(=O)CNC(=O)[C@H](Cc2c[nH]c3ccccc23)NC(=O)[C@H](CCCNC(=N)N)NC(=O)[C@@H](Cc2ccccc2)NC(=O)[C@H](Cc2c[nH]cn2)NC(=O)[C@H](CCC(=O)O)NC1=O [gallium-67 labelled] |  | C57 mice with B16/F1 melanoma, pancreas | intravenous, 0.037 MBq, 24 h |  | tissue uptake | 0.11 ± 0.07 %ID/g |
| COc1cc(OC)cc(C2=C3C(C)=C(I)C(/C=C/c4cccs4)=[N+]3[B-](F)(F)n3c(/C=C/c4cccs4)c(I)c(C)c32)c1 |  | DMSO |  |  | log molar absorptivity | 4.59 M⁻¹ cm⁻¹ |
| Oc1ccc2ccccc2c1/N=N/c1ccccc1 |  | rat whole blood | 5.0 µg/L, 30 days, -20 °C, long-term storage |  | measured concentration | 5.12 µg/L |
| C=CC(=O)Nc1cc(Nc2nccc(-c3cn(C4CC4)c4ccccc34)n2)c(OC)cc1N(C)CCNC | radiolabelled metabolite profiling | human male, plasma | oral, 110 mg, 24 h |  | plasma concentration | 52.3 ng/g |
| OC1(C(F)(F)F)CCN(c2nc(Nc3ccnc(C(F)(F)F)c3)nc(-c3cccc(C(F)(F)F)n3)n2)C1 (stereo not shown) |  | Sprague-Dawley rat, both sexes | oral, 10.1 mg/kg | reference: total drug | unchanged drug in excreta | ~50% |
| CC(C)c1cnc(-c2cc(Cl)ccc2F)cc1Nc1ccncc1C(=O)NC(CO)CO | monotherapy, measured: rash | human patients | oral, dose not given, grade 5, phase I A |  | patients with treatment-related adverse event | 0% |
| CC(C)[C@H](NC(=O)[C@@H]1CCCN1C(=O)[C@H](CCCNC(=N)N)NC(=O)[C@H](CS)NC(=O)[C@H](Cc1c[nH]c2ccccc12)NC(=O)[C@H](CCCNC(=N)N)NC(=O)[C@@H](Cc1ccccc1)NC(=O)[C@H](Cc1c[nH]cn1)NC(=O)[C@H](CCC(=O)O)NC(=O)[C@H](CS)NC(=O)[C@H](CS)NC(=O)[C@@H]1CC(=O)N[C@@H](CCCNC(=N)N)C(=O)NCC(=O)N[C@@H](CC(=O)O)C(=O)N[C@H](Cc2ccc(O)cc2)C(=O)N1)C(N)=O [technetium-99m labelled] |  | C57 mouse, female, B16/F1 melanoma | intravenous, 0.037 MBq, 2 h | reference: tumour over muscle | tumour to tissue ratio | 80.6 |
| C[C@@H]1Cc2c([nH]c3ccccc23)[C@@H](c2c(F)cc(/C=C/C(=O)O)cc2F)N1C12CC(C1)C2 |  | Balb/c nude mouse, MCF7 xenograft, plasma | oral, 10 mg/kg, steady state |  | AUC(0-t) | 21300 ng·h/mL |
| C#CCOc1ccc(/C=C2\SC(=O)N(CC(=O)NCc3ccccc3)C2=O)cc1 | inverse Kirkwood-Buff integrals | binary solvent mixture | 298.15 K, mole fraction x1 0.45 |  | Kirkwood-Buff integral G1,3 | -262 cm³/mol |
| COC(=O)C(c1ccccc1Cl)N1CCC(SCC(=O)c2cccc(OC)c2)C(=CC(=O)O)C1 (mixture of isomers) | HPLC-MS/MS | feline citrate plasma | 100 ng/mL, 72 h, -20 °C, storage stability |  | deviation from nominal | -16% |
| N#Cc1cnc2cc(OCC3CCNCC3)c(F)cc2c1Nc1cc(F)c(OCc2cccc(Cl)n2)cc1Cl |  | male beagle dog, plasma | oral, 5 mg/kg |  | AUC(0-t) | 1450 ng·h/mL |
| Cc1nc(N[C@@H](C)c2ccc(-c3nc(C4CC4)no3)cc2)c2cc(C)oc2n1 |  | human, plasma |  |  | unbound fraction | 0.0003 |
| Nc1ncnc(NCC2CCN(C(=O)C(O)CO)CC2)c1-c1ccc(Oc2ccccc2)cc1 (stereo not shown) |  | male humans, plasma | oral, 75 mg evobrutinib, metabolite |  | plasma half-life | 2.4 h |
| Cc1cc2c(cc1C1(c3ncc(C(=O)O)cn3)CC1)C(C)(C)CCC2(C)C |  | Sprague-Dawley rat, male, plasma | oral, 100 mg/kg, 1 h, sesame oil vehicle |  | HDL level | 81 ± 3.6 mg/dL |

| SMILES | test | system | conditions | scale | quantity | result |
| --- | --- | --- | --- | --- | --- | --- |
| Oc1cc2nc(c1)CNCc1cc(O)cc(n1)CNC2 |  | mouse hepatocytes | 2 µM, 0 to 240 min |  | compound depleted | 31% |
| CCC/C(=C\C1=C(C(F)(F)F)C(=O)c2ccccc2C1=O)C(=O)N(CC)CC |  | mouse liver S9 | 1 µM, pH 7.4, phase I metabolism |  | CLint scaled | 37.6 mL/min/kg |
| CC(C)Cn1c(SCC(=O)N2CCc3ccccc3C2)nc2cc(Cl)ccc2c1=O |  | male C57BL/6 mouse, brain | intraperitoneal, 10 mg/kg, 6 h |  | concentration | 764 nM |
| NS(=O)(=O)c1ccc(N2N=C(C(F)(F)F)CC2c2ccc(F)cc2F)cc1 (stereo not shown) | population PK model, NONMEM | Beagle dog |  |  | V/F central, bootstrap median | 6.6 L |
| N#Cc1nc(N2CCOCC2)nc(N(Cc2ccc(F)cc2)CC2CCCNC2)n1 (stereo not shown) |  | CD-1 mouse female, brain | intraperitoneal, 10 mg/kg |  | AUC brain | 152 ng·h/g |
| Cn1c(=O)oc2ccc(-c3ccc(CC(C#N)NC(=O)C4CNCCCO4)c(F)c3)cc21 (stereo not shown) | measured: blood bilirubin increased | human | 40 mg single dose, fasted |  | subjects with TEAE | 8.3% |
| N=C(N)NCCC[C@@H]1NC(=O)[C@H](CCCCNC(=O)CC[C@H](NC(=O)CC[C@H](NC(=O)CN2CCN(CC(=O)O)CCN(CC(=O)O)CCN(CC(=O)O)CC2)C(=O)N[C@@H](CCC(=O)NCCCC[C@@H]2NC(=O)[C@@H](Cc3ccccc3)NC(=O)[C@H](CC(=O)O)NC(=O)CNC(=O)[C@H](CCCNC(=N)N)NC2=O)C(=O)NCCCC[C@@H]2NC(=O)[C@@H](Cc3ccccc3)NC(=O)[C@H](CC(=O)O)NC(=O)CNC(=O)[C@H](CCCNC(=N)N)NC2=O)C(=O)NCCCC[C@@H]2NC(=O)[C@@H](Cc3ccccc3)NC(=O)[C@H](CC(=O)O)NC(=O)CNC(=O)[C@H](CCCNC(=N)N)NC2=O)NC(=O)[C@@H](Cc2ccccc2)NC(=O)[C@H](CC(=O)O)NC(=O)CNC1=O [gallium-68 labelled] |  | female BALB/c nude mice, SK-RC-52 xenograft, tumour | 0.5 µg, 2 h post injection, with: excess unlabelled DOTA-E-[c(RGDfK)]2 50 µg |  | radioactivity concentration | decreased |
| Cc1ncc2c(n1)CN(C(=O)Nc1nc(-c3cccs3)ccc1N)C2 |  | male beagle dog, plasma | oral, 120 mg/kg, multiple doses, once daily |  | AUC | 25000 ng·h/mL |
| Cc1cc2c(NC(=O)N[C@@H]3CC(C)(C)Oc4cc(C(F)(F)F)ccc43)c(C)ccc2cn1 | telemetry | male Sprague-Dawley rats | oral, 100 µmol/kg | reference: vehicle | maximum body temperature increase | 1.4 °C |
| C[C@H](NC(=O)COC(=O)[C@H](C)NC(=O)CO)C(=O)O |  | water | pH 8, 25 °C |  | depolymerization half-life | 0.18 h |
| COc1ccc(-c2ccn(CC[C@](C)(C(=O)NO)S(C)(=O)=O)c(=O)c2)c(F)c1 |  | CF-1 mouse, female | subcutaneous, 18.75 mg/kg |  | AUC | 5090 ± 1040 ng·h/mL |
| O=C([O-])CN1CCN(CC(=O)[O-])CCN(CC(=O)[O-])CCN(CC(=O)[O-])CC1.[64Cu+2] |  | human serum | 1 h, 37 °C, with: 64Cu |  | radiometal bound to chelator | 77% |
| CC(C)(C)c1ccc(O)c(C(=O)Nc2ccc(CN)cc2)c1 |  | rat liver microsomes | 1 µM, with: NADPH |  | t1/2 | 1.05 h |
| Cc1cccc(Cn2ncc3c4cc(F)c(CN(C)C)cc4n(C)c3c2=O)n1 |  | mouse, retina | intraperitoneal, 25 and 50 mg/kg |  | half-life of PK activation | ~576 h |
| CC(C)(O)c1ncc([S@](N)(=O)=NC(=O)Nc2c3c(cc4c2CCC4)CCC3)s1 |  | healthy humans | oral, suspension, median range, all single doses |  | Tmax | 0.76 to 3 h |
| NC12CNCCNCC(NCc3ccc(CNC(=O)CCCC(=O)NCc4ccc(-c5nncnn5)cc4)cc3)(CNCCNC1)CNCCNC2.[64Cu+2] | OLINDA dosimetry | muscle | 24 h pretargeting interval, with: huA33-TCO pretargeting |  | mean absorbed dose | 0.0193 rad/mCi |
| O=C(NCCCN(CCCCN(CCCNC(=O)c1cccc(=O)n1[O-])C(=O)c1cccc(=O)n1[O-])C(=O)c1cccc(=O)n1[O-])c1cccc(=O)n1[O-].[89Zr+4] | radio-TLC | PBS | 7 d, pH 7.4, 37 °C, with: Cu^2+ 10-fold excess |  | intact complex | 98.4 ± 2.3% |
| C=C(c1ncc(C(=O)O)cn1)c1cc2c(cc1C)C(C)(C)CCC2(C)C |  | Sprague-Dawley rat, male, plasma | oral, 100 mg/kg, 24 h, sesame oil vehicle |  | HDL level | 37 ± 3.1 mg/dL |
| N=C(N)NCCC[C@@H]1NC(=O)[C@H](Cc2c[nH]c3ccccc23)NC(=O)[C@@H](CC2CCCCC2)NC(=O)[C@@H]2CCCN2C(=O)[C@@H](NC(=O)CCc2ccccc2)CCCNC1=O | two-compartment model | C57BL/6J mice, plasma | intraperitoneal, 1 mg/kg |  | alpha rate constant | 0.07 min⁻¹ |
| C[C@H](CN(C)Cc1ccccc1)NC(=O)c1ccc(-c2noc(C(F)(F)[18F])n2)cc1 | PET | Sprague-Dawley rat, female, hippocampus and cerebellum | intravenous, 30 min | reference: hippocampus SUV over cerebellum SUV | hippocampus-to-cerebellum ratio | 1.76 ± 0.26 |
| Cc1nc(C)c(C=[N+]([O-])C(C)(C)C)nc1C |  | healthy human, both sexes, serum | oral, 1200 mg twice daily, 7 days |  | Vss/F | 57.7 L |

Excerpt of the above:
| SMILES | test | system | conditions | scale | quantity | result |
| --- | --- | --- | --- | --- | --- | --- |
| NS(=O)(=O)c1ccc(N2N=C(C(F)(F)F)CC2c2ccc(F)cc2F)cc1 (stereo not shown) | population PK model, NONMEM | Beagle dog |  |  | V/F central, bootstrap median | 6.6 L |
| CC(C)[C@H](NC(=O)[C@@H]1CCCN1C(=O)[C@H](CCCNC(=N)N)NC(=O)[C@H](CS)NC(=O)[C@H](Cc1c[nH]c2ccccc12)NC(=O)[C@H](CCCNC(=N)N)NC(=O)[C@@H](Cc1ccccc1)NC(=O)[C@H](Cc1c[nH]cn1)NC(=O)[C@H](CCC(=O)O)NC(=O)[C@H](CS)NC(=O)[C@H](CS)NC(=O)[C@@H]1CC(=O)N[C@@H](CCCNC(=N)N)C(=O)NCC(=O)N[C@@H](CC(=O)O)C(=O)N[C@H](Cc2ccc(O)cc2)C(=O)N1)C(N)=O [technetium-99m labelled] |  | C57 mouse, female, B16/F1 melanoma | intravenous, 0.037 MBq, 2 h | reference: tumour over muscle | tumour to tissue ratio | 80.6 |
| COC(=O)c1ccc2c(c1)NC(=O)/C2=C(\Nc1ccc2c(c1)CCN2C(=O)CN1CCOCC1)c1ccccc1 |  | beagle dog, plasma | intravenous, 2 mg/kg |  | AUC(0-t) | 1010 ng·h/mL |
